# Measurements gathered from unrelated publications.
# Each line is one published result; not all experiments were run side by side. Numbers after ± are the reported error.
# Medium: plasma
SMILES,test,system,conditions,scale,endpoint,result
CO[C@H]1CC[C@H](N2C(=O)CNc3ncc(-c4ccc(C(C)(C)O)nc4)nc32)CC1,,patients,"oral, 7.5 mg, day 15, geometric mean",,AUC(0-t),179 ng·h/mL
N#CCNC(=O)c1ccc(-c2ccnc(Nc3ccc(N4CCOCC4=O)cc3)n2)cc1,,healthy volunteers,added: rifampin single-dose,reference: with rifampin over alone,AUC(0-t) geometric mean ratio,115%
COc1ccc([C@@H](O)c2cc(-c3ncnc4cc(N5CCOCC5)ccc34)c(F)cc2Cl)nn1,mixed model,healthy volunteers,"oral, 100 mg, high-fat fed tablet test arm",,AUC(0-t) geometric LS mean,1280 ng·h/mL
C[C@@H](N)C1CCN(S(=O)(=O)c2cccc3cnccc23)CC1,,"healthy volunteers, fasted","oral, 250 mg",,AUC(0-t),76.5 ng·h/mL
COc1nnc2ccc(N3CCC(c4ccc(OCCN5CCN(C)C(=O)[C@H]5C)cc4)CC3)nn12,,patients,"oral, 20 mg twice daily, single dose, monotherapy",,AUC(0-t),0.391 µM·h
CS(=O)(=O)c1ccc([C@@H](O)[C@@H](CF)NC(=O)C(Cl)Cl)cc1,,chicken (Arbor Acres),"oral, 20 mg/kg, added: quercetin 20 mg/kg pretreatment",,AUC(0-t),41700 ± 3630 ng·h/mL
CC[C@H](Nc1ncnc2[nH]cnc12)c1oc2ccccc2c(=O)c1-c1cccc(F)c1,,"patients, Cohort-3","oral, 800 mg twice daily, added: romidepsin 14 mg/m2",,AUC(0-t),31700 ± 24000 ng·h/mL
C[C@@](Cc1ccc(O)c(O)c1)(NN)C(=O)O,,male Parkinson's disease patients,"oral, dose not given, 3 h, median",,AUC(0-t),84.9 ng·h/mL

# Excerpt of the above:
SMILES,test,system,conditions,scale,endpoint,result
C[C@@H](N)C1CCN(S(=O)(=O)c2cccc3cnccc23)CC1,,"healthy volunteers, fasted","oral, 250 mg",,AUC(0-t),76.5 ng·h/mL
